Published values from different studies.
Numbered parts are unrelated; each lists some results of a single study.

Study 1 — read-out: enzyme activity; mode: inhibitor; tested at: 0.5 µM; baseline: control
Target: Mitogen-activated protein kinase kinase kinase 8 (MAP3K8, Homo sapiens, UniProt P41279)
UniProt P41279, sequence (whole entry, looked up): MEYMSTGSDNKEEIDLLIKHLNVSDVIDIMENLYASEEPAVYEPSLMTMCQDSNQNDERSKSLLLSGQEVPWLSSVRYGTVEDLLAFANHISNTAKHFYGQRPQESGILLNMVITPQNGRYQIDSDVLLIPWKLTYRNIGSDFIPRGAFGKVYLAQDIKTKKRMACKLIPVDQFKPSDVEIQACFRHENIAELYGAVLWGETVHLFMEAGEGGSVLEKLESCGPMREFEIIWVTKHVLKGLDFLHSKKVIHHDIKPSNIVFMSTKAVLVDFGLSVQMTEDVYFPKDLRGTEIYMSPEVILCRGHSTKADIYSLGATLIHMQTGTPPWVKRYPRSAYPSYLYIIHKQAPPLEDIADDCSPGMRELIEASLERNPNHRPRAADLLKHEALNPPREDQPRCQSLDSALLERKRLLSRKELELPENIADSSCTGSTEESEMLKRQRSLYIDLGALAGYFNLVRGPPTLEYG
`CCCCc1c(-c2ccc(O)cc2)[nH]c2nccnc12` has a remaining activity of 111%.
With `CCCCc1c(-c2ccc(OC)cc2)[nH]c2nccnc12` the remaining activity was 98.2%.
With `Cc1cc(Nc2cc(N3CCN(C)CC3)nc(Sc3ccc(NC(=O)C4CC4)cc3)n2)[nH]n1` the remaining activity was 115%.
`O=C(c1cc2cc(O)ccc2[nH]1)c1cc2cc(O)ccc2[nH]1` has a remaining activity of 93%.
With `N#CC(c1ccnc(NCCc2cccnc2)n1)c1nc2ccccc2s1` (centres unmarked) the remaining activity was 96%.
`O=c1c(-c2ccc(F)cc2)c(-c2ccncc2)[nH]n1-c1ccc(Cl)cc1` has a remaining activity of 87.1%.
`N#C/C(=C(/N)SC1C=CC=CC1)c1cccc(C(O)c2ccncc2)c1` (centres unmarked) gave a remaining activity of 79.8%.
The remaining activity of `C[C@@H](N)[C@H]1CC[C@H](C(=O)Nc2ccncc2)CC1` is reported as 98.4%.
For `FC(F)(F)c1ccc(/C=C/c2nc(COc3ccc(CCCCn4ccnn4)cc3)co2)cc1`, the remaining activity was 90.8%.
For `CC(C)N(CCC(=O)c1ccc2ccccc2c1)Cc1ccccc1`, the remaining activity was 94.6%.
`O=C1NC(=O)c2c1c1c3ccccc3[nH]c1c1[nH]c3cc(Br)ccc3c21` has a remaining activity of 89%.
The remaining activity of `c1cc(-c2cnn3cc(-c4ccc(OCCN5CCCCC5)cc4)cnc23)ccn1` is reported as 104%.
`COc1cc2c(N3CCN(C(=O)Nc4ccc(OC(C)C)cc4)CC3)ncnc2cc1OCCCN1CCCCC1` gave a remaining activity of 93.2%.
`O=C1Cc2c([nH]c3ccc(Br)cc23)-c2ccccc2N1` has a remaining activity of 98.6%.
With `CN1CCN(c2ccc3nc(-c4c(N)c5c(F)cccc5[nH]c4=O)[nH]c3c2)CC1` the remaining activity was 107%.
With `CCCNC(=O)Nc1ccc(Oc2ncnc3cc(OC)c(OC)cc23)cc1Cl` the remaining activity was 104%.
`c1ccc2c(-c3ccncc3)c[nH]c2c1` has a remaining activity of 99%.
For `NC(=O)c1cccc(-c2cc(Nc3ccc(OC(F)(F)F)cc3)ncn2)c1`, the remaining activity was 96.8%.

Study 2 — technique: Phase 2a trial; host: human, idiopathic pulmonary fibrosis
Compound: CC(C)n1cnc(-c2ccc(F)cc2)c1-c1ncc(C(=O)Nc2ccc(N3CCN(C)CC3)cc2)[nH]1
item: hypocalcaemia; 60 mg once daily, grade 3 — “patients with adverse event”: 0%.
item: haemoptysis; 30 mg once daily, grade 2 — “patients with adverse event”: 0%.
It gave 0% for “patients with adverse event” (item: blood urea increased; 60 mg once daily, grade 4).

Study 3 — read-out: ligand displacement; technique: radioligand; tested at: 10 µM
Target: 5-hydroxytryptamine receptor 1B (HTR1B, Homo sapiens, UniProt P28222)
UniProt P28222, sequence (whole entry, looked up): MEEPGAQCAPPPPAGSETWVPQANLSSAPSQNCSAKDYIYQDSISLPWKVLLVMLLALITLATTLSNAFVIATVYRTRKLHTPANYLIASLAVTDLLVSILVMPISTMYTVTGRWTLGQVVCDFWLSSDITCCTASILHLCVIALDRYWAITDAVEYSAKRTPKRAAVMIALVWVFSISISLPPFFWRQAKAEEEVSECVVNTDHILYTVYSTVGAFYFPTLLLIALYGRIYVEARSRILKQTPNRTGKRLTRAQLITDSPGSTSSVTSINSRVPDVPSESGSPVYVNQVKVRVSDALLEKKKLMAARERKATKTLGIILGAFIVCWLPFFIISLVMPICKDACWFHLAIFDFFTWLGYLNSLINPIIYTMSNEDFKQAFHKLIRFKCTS
`O=C(NCc1ncc(C(F)(F)F)cc1Cl)c1ccc2c(c1)C1(CCS(=O)(=O)CC1)[C@H](C1CC1)N2S(=O)(=O)c1ccc(F)cc1` gave an inhibition of -6.19%.
For `O=C(Nc1cccnn1)N1CCC(=Cc2cccc(Oc3ccc(C(F)(F)F)cn3)c2)CC1`, the inhibition was 24.4%.
`CCCCN(CCCC)C(=O)CN1C[C@H](c2cc(OC)c3c(c2)OCO3)[C@@H](C(=O)O)[C@@H]1CC(C)(C)CCC` has an inhibition of 2.64%.
`CNCc1ccccc1-c1csc([C@H](C)Nc2nc(C)nc3cc(OC)c(OC)cc23)c1` has an inhibition of 75%.
`O=C(NS(=O)(=O)c1ccc(NCC2CCOCC2)c([N+](=O)[O-])c1)c1ccc(N2CCN(Cc3ccc(C(F)(F)F)cc3-c3ccc(Cl)cc3)CC2)cc1Oc1cnc2[nH]ccc2c1` gave an inhibition of -6.15%.
With `O=C([C@H]1C[C@H](O)CN1c1ccc(Cl)cc1)N1CC2COCC(C1)N2Cc1ccc(Cl)cc1` the inhibition was -6.45%.

Study 4 — host: human; sample: microsomes or S9; tested at: 2 µM; time: 0.5 h
`O=C(CCN1C(=O)c2ccccc2N2C(=O)c3ccccc3C12)NCC1CCOCC1` (centres unmarked) gave a remaining compound of 30.6%.
For `CCOc1cc(=O)n2c(c1C(=O)NCCCN1CCCc3ccccc31)CCCCC2`, the remaining compound was 0.17%.
For `Oc1c(Cl)c(Nc2ccccc2)c(O)n1-c1ccccc1`, the remaining compound was 57.7%.
`CCC1(N2CCOCC2)CCN(C(=O)c2c[nH]c(=O)cc2OC)CC1` has a remaining compound of 80.8%.
The remaining compound of `COc1nc(Nc2ccc3cn[nH]c3c2)nc(-n2ccnc2)n1` is reported as 14.2%.
For `O=C(Cn1nc(C(=O)N2CCc3ccccc32)c2cc(F)ccc21)OCc1ccccc1`, the remaining compound was 2.68%.

Study 5 — cell line: HaCaT; tested at: 100 µM; time: 36 h
`O=C(O)CCc1nc2ccccc2[nH]1` has a viability of 95.3%.
With `CNCCCN1c2ccccc2CCc2ccccc21` the viability was 5.02%.
For `O=[N+]([O-])c1cncn1CCN1CCOCC1`, the viability was 97.3%.
`NC[C@H]1O[C@H](O[C@H]2[C@H](O)[C@@H](O[C@H]3O[C@H](CO)[C@@H](O)[C@H](N)[C@H]3O)[C@H](N)C[C@@H]2N)[C@H](N)C[C@@H]1O` gave a viability of 99%.
The viability of `OCCc1ccccc1` is reported as 79.5%.
The viability of `COc1cc(Cc2cnc(N)nc2N)cc(OC)c1OC` is reported as 69.5%.
With `NC(=O)N[C@@H](CCC(=O)O)C(=O)O` the viability was 83.2%.
`COc1ccc(-c2ccc3cc(C(=O)O)ccc3c2)cc1[C@]12C[C@H]3C[C@H](C[C@H](C3)C1)C2` has a viability of 6.14%.
